Measurements pooled from the literature.
Parts stem from different laboratories: compare values within a part only.

Sample 1 — method: protein-binding microarray; form: double-stranded DNA, one strand shown; medium: in vitro; tested at: not given; reading: higher = stronger binding
Target: Protein C-ets-1 (ETS1, Homo sapiens, UniProt P14921, residues 1-441, full length assumed)
Chain of UniProt P14921 (whole entry, looked up): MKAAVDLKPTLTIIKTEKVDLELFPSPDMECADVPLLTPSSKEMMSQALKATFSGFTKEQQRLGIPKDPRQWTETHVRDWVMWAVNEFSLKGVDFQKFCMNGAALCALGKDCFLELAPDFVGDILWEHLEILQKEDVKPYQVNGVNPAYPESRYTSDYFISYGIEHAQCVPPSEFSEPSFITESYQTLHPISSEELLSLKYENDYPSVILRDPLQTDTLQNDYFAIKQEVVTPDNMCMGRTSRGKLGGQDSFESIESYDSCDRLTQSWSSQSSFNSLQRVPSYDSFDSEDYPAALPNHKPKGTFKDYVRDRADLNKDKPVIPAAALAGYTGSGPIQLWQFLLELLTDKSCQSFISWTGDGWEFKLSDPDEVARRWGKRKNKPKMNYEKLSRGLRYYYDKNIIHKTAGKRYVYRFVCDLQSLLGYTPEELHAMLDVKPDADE
Notes: k-mer, scored over probes, only values ≥0.25
Oligonucleotide	E-score
CTTCCTTC	0.408
CCTTCCAG	0.299
ATGGGAAA	0.284
GGTCTGCA	0.286
GTCCGGTA	0.391
GCGGCGGA	0.327
ACTTCCAT	0.318
CGGAACTC	0.41
TCCGCCAA	0.356
CGCGGAAA	0.4
CGTTATCC	0.263
CCGGTGAA	0.271
GCGGAAAA	0.401
AGGCGGAC	0.254
CAAGTTCC	0.326
AAACGGGA	0.346
CTGCCGGA	0.414

Sample 2 — method: protein-binding microarray; form: double-stranded DNA, one strand shown; medium: in vitro; tested at: 2200 nM top; notes: 60-bp whole probe; with: salmon DNA 0.4 mg/ml; relative to: random background probes; reading: higher = stronger binding; shared flanks, not repeated: GCCTAGCAC … GTCTTGATTCGCTTGACGCTGCTG
Target: Interferon regulatory factor 7, full length, phosphomimetic (IRF7, Homo sapiens, UniProt Q92985, residues 1-503, S471D/S472D/S475D/S476D/S477D/S483D/S484D/S487D)
Construct (chain): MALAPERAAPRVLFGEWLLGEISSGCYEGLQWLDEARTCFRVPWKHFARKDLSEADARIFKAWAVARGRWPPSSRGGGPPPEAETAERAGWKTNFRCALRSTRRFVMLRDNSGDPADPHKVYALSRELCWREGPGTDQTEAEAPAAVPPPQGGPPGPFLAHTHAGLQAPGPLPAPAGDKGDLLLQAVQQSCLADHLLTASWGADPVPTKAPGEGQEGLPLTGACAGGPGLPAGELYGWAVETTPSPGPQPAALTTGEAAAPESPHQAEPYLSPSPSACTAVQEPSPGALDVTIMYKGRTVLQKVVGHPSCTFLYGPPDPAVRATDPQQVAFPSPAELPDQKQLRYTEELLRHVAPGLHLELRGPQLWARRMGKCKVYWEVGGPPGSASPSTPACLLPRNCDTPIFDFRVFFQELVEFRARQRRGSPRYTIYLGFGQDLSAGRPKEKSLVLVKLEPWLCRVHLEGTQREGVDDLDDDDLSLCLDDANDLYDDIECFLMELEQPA
Oligonucleotide	fitted relative affinity
GACGTTTTCCTACTGCTGACGTGCTAG	2.38 z-score
TTAGAACGGAGACTGGATTAGTGCTAG	-0.675 z-score
TTAGGACTGCTTTCCCTTTAGTGCTAG	3.49 z-score
AGTTTTCTCATTCGTCATTTCGTGCTA	3.69 z-score
CACTATTTAAGAACTATGCACGTGCTA	0.162 z-score
TCATATTTACTCTCTACAACTGTGCTA	1.41 z-score
GACGATATCAGTCTCGAAACGTGCTAG	0.514 z-score
CCATTTCTGTTTTTGCTTTCGTGCTAG	6.08 z-score
TCATCCCTCGGGTTGCGGACTGTGCTA	1.24 z-score
GAAGGTATCGGACTGGGGACGTGCTAG	-0.409 z-score
TCCTGTGACGTTAAGGTCTCGTGCTAG	0.911 z-score
GACGGTTTCGACTTTCGGGCCGTGCTA	8.39 z-score
TCAGCATACCATATCAGACTGTGCTAG	0.568 z-score
GACGATATCGGGACTGCAGACGTGCTA	-0.0697 z-score
TTAGATATCAGTTTCGATCAGTGCTAG	3.38 z-score
GAGGGTTTCGGTTCCGGGACGTGCTAG	8.71 z-score
GACGAGTTCAGTCTCGAGACGTGCTAG	0.141 z-score
GACGGTTCCATTTTCCTGACGTGCTAG	2.49 z-score
AGCTGTTTCTGTGTCACAGAGTGCTAG	1.1 z-score

Sample 3 — method: RNA Bind-n-Seq; form: RNA; medium: in vitro; tested at: 365 nM; relative to: no-protein control; reading: higher = stronger binding
Target: RNA binding protein fox-1 homolog 2, RRM domain, GST-SBP tag (RBFOX2, Homo sapiens, UniProt O43251-10, residues 100-194)
Notes: natural RNA segment, single round, ends assumed
Shared flanks, not repeated: GGGAGUUCUACAGUCCGACGAUC … UGGAAUUCUCGGGUGCCAA
Target sequence (chain): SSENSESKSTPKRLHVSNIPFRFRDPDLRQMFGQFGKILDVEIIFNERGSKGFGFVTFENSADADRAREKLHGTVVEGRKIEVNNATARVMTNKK
Oligonucleotide	RBNS enrichment (R)
UGGAUGCCCAGACACACAUCUUUCAGAAAACACAGAAACCUAGCCAGCAGCUGCAGACAUGUUUGGGAAUAUGAGAGCAUGUUCGCAGACCCACCAGGUUCUGUGUCCUA	0.456
CCUGCGUCAUGUAAAUAUCUGCAAAUCAUGACAGUCUAAAGUGCAAACCAUUUUCAGAGACUUUGGGGAAUGCAGUGAUCAGAAGUGGCUAAUUUAUUUUAUUUCUGAUU	0.907
UUCAUAACAGUGCCAUUGUCUUUAUAUGAACAUAGACUAGAGAAACCGUCCUCUUUUUCCAUCAUAAUUCUAAUCUAACAAUGGAAGAUUUGCCCAUUUACACUUUUGAG	0.433
UGUUAAAUGGAUACUAAUGAAUAGCAUAGCAUAGUGGGUAAGAGUUUAUAUAGCACAGGCUCUAGAAUCAGAUUAAGUAGGUUCAAAUACCAGUUCUGCCAGUAACUGGU	2.1
AAAUAAAAGCCCAGGUCUGAGAUGUUCACACAAGCAAUUUCUCUGCACUGCUGUGUGGGCCGUGCAUGAUGUUUCCCCAUCAUUUCUUAAGACUGUUUUCCUGUGUAAGU	0.794
UCCAUUAUUUCUCUACUUUUCCUUCCAGCAAACCUGAAACGUGAGGGAGAUGGAUUAAUGUGAGUAACAGGAAUGUGUCUUUAAAAAGCUAGAGUGGUUACAUUUAAUCA	0.345
AGGGGUCUUGUGACUUGGAGAGGUCCUCAGCAGGCCUGGGAGCCCGGAUUGGAGCCUUGGCUGCCGUUGAGAAGCACUUACCUGCCAAGAUUUGCUGAUGCCAGACGAUC	0.335
UCUUUACAUAUUUAUAUGUAUGUUUUAAGUAGUCCUCCUGUAUCUAUUGUAUAUUUUUUUCUUAAUGUUUAAGGAAAUGUGCAGGAUACUACAUGCUUUUUGUAUCACAC	0.602
UCAUCCCAAAUGACAAGGAAUGUGGCUCAGAGAAGGGUUUUUCUUUUUUGACCUUUCUUCUCUCAACAGGAACCUGCCUGAGGACACCCUUCUAGAGCAAGGAAUUGACU	0.341
CCGCAGCGAAGCUGCCGUUCAUGUGUUGGAGGCCAAAUGUGGCAAACCAACCCCAGGCCCACCCAGAGCGAGCAAACGCUGAGACCUGAAAGGACAUGGAUGAGAAGAGG	0.386
AAAGUUAACUAUGUAAGAUAUUAUUUCUGAAACAAUUUAGCUAUAUCCACUAUGAUUAUAAACUGUGUCUCGACCUGUGUUAUUUACAUUAGCUGCUUAAAAAAGCAUUG	0.3
AUUUAAUAAGUCAUAUUUUUUCACAAAUAAGGAAAAAUCAUUUUAAUGAGAAUUUUAAGUAUUUGCAAUAAAUAUGUGUAUAUAGAUUGUAUGUAUUCAUAUAUUAUUUU	7

Sample 4 — method: protein binding microarray; form: double-stranded DNA, one strand shown; medium: in vitro; tested at: not given; relative to: not given; reading: higher = stronger binding
Target: Histone acetyltransferase KAT6A, both winged helices, GST fusion (KAT6A, Homo sapiens, UniProt Q92794, residues 1-181)
Notes: 8-mer, flanks averaged, mean of 2 arrays, mostly near background
Residues (chain): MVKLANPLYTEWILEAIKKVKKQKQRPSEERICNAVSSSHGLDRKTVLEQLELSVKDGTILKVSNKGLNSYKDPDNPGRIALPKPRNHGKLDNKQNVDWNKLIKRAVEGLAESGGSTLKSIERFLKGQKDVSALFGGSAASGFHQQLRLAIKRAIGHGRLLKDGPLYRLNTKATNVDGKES
Oligonucleotide	E-score
GACTTCAC	-0.00619
ATCGGAAT	0.0945
CTGTTTCC	0.0402
ACACGGCA	0.252
AGTGCATA	-0.0164
CAACCCGG	0.151
ACGGGTCT	0.146
GACCCGAA	-0.0263
AGGTGTAT	-0.152
ACCACTAA	-0.152
ATGACATC	0.137
AAGTCGCC	0.0276
GGTTTTTA	-0.0634
AAACTTAT	-0.041
CCGGCTAG	0.152
AGATTGAT	0.0193
CAAAGATA	-0.152
GAAGTGTA	-0.15
AGGAGCAT	-0.146
ACGGCTAG	0.281
AACTGTCC	-0.104
CTCTACTA	-0.224
CAGGTTGG	-0.15
CTGTGTGA	-0.119
ACATGCTG	-0.136

Repeated from above (sample 2):
Oligonucleotide	fitted relative affinity
TCATATTTACTCTCTACAACTGTGCTA	1.41 z-score
GACGATATCAGTCTCGAAACGTGCTAG	0.514 z-score
CCATTTCTGTTTTTGCTTTCGTGCTAG	6.08 z-score
TCATCCCTCGGGTTGCGGACTGTGCTA	1.24 z-score
GAAGGTATCGGACTGGGGACGTGCTAG	-0.409 z-score
TCCTGTGACGTTAAGGTCTCGTGCTAG	0.911 z-score
GACGGTTTCGACTTTCGGGCCGTGCTA	8.39 z-score
TCAGCATACCATATCAGACTGTGCTAG	0.568 z-score
GACGATATCGGGACTGCAGACGTGCTA	-0.0697 z-score
